Experimental data pooled from the literature.
Numbered parts are unrelated; each lists some results of a single study. “And” joins repeats or separate records; there may be more than shown.
Sequence of UniProt Q9UQM7 (whole entry, looked up): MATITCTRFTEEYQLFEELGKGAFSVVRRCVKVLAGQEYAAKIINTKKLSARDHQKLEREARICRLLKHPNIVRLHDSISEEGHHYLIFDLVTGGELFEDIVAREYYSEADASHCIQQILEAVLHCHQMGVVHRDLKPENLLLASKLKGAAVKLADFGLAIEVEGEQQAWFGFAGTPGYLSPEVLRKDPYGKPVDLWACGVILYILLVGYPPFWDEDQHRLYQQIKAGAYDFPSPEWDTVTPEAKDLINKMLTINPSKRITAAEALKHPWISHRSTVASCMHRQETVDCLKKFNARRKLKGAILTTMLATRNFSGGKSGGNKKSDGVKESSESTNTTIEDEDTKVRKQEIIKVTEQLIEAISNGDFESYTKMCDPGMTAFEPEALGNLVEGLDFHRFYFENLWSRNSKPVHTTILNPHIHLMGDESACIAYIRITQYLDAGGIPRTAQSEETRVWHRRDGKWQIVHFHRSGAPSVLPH
Sequence of UniProt P28566 (whole entry, looked up): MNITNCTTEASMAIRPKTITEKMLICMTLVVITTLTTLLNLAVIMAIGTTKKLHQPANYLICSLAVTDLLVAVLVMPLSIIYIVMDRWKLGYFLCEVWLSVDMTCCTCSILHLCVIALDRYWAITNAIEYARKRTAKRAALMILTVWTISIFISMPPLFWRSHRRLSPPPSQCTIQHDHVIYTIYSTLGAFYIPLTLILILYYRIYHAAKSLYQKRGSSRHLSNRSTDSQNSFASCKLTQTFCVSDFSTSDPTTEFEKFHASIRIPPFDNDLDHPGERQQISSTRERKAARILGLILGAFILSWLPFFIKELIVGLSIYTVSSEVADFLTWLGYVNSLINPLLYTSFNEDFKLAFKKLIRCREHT
Sequence of UniProt P28223 (whole entry, looked up): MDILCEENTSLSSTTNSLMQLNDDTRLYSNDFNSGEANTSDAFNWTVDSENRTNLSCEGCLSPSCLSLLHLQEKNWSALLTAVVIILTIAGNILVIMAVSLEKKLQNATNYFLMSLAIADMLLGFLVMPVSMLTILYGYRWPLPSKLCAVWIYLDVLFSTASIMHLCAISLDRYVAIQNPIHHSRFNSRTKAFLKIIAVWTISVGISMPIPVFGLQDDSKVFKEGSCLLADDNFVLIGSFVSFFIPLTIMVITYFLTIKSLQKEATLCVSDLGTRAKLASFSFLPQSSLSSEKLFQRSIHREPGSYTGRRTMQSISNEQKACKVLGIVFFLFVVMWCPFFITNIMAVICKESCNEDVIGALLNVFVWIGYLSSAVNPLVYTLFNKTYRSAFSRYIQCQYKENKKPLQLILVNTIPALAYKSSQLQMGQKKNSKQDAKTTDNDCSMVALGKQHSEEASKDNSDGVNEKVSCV

Study 1
Cell line: mouse MPNST tumor cells
Method: high-content nuclear imaging
Refers to: cell number
Tested at: 10 µM
Time: 12 h
Setting: mean of 2 replicates
Relative to: plate mean
Reading: higher = more cells
Compound | nuclei count [z-score]
CCC(=O)O[C@@](Cc1ccccc1)(c1ccccc1)[C@@H](C)CN(C)C | 1.93
O=C(N[C@H]1CN2CCC1CC2)c1cc2ccoc2cn1 | 0.844
C[N+]12CCC(CC1)C(OC(=O)C(O)(c1ccccc1)c1ccccc1)C2 (centres unmarked) | 0.374
FC(F)(F)c1cccc(C2=CCN(CCc3ccc4ccccc4c3)CC2)c1 | -0.527

Study 2
SMILES: O=C1CCC(N2Cc3c(ccc4c3OCC43CCN(Cc4ccccc4)CC3)C2=O)C(=O)N1 (centres unmarked)
Medium: plasma
test system | conditions | plasma concentration
male Sprague Dawley rats | intravenous, 1 mg/kg, 8 h | 0.0173 µg/mL
ICR mouse, male | intravenous, 1 mg/kg, 8 h | 0.00357 µg/mL and 0.00848 µg/mL and 0.00317 µg/mL
Sprague Dawley rat, male | intravenous, 1 mg/kg, 0.5 h | 0.212 µg/mL and 0.278 µg/mL
ICR mouse, male | oral, 3 mg/kg, 6 h | 0.0286 µg/mL and 0.0312 µg/mL and 0.0784 µg/mL
male Sprague Dawley rats | oral, 3 mg/kg, 8 h | 0.0314 µg/mL
ICR mouse, male | intravenous, 1 mg/kg, 2 h | 0.0544 µg/mL and 0.0612 µg/mL

Single results of other studies
Structure (SMILES) | target or system | assay | conditions | measurement | result
CCOC(=O)c1cc2cc(-c3cc(C(=O)NCc4ccc(C(=O)O)cc4)nn3C)ccc2[nH]1 | 5-hydroxytryptamine receptor 2A (HTR2A, Homo sapiens, UniProt P28223) | binding, radioligand binding | 10 µM | inhibition | 19.1%
N#C[C@@H](O[C@@H]1O[C@H](CO[C@@H]2O[C@H](CO)[C@@H](O)[C@H](O)[C@H]2O)[C@@H](O)[C@H](O)[C@H]1O)c1ccccc1 | Calcium/calmodulin-dependent protein kinase type II subunit alpha (CAMK2A, Homo sapiens, UniProt Q9UQM7) | enzyme activity, inhibitor | 10 µM | inhibition | 12%
Cc1cc(NC(=O)c2cccc(S(F)(F)(F)(F)F)c2)cc(-n2ccn3nc(-c4cccnc4)cc23)c1 | U2OS, HEK-293T and MRC9 | – | 10-fold recommended concentration, 24 h | healthy cells | < 50%
N#CC1(c2ccccn2)CCN(Cc2cc(C(=O)O)c(=O)n3ccccc23)CC1 | 5-hydroxytryptamine receptor 1E (HTR1E, Homo sapiens, UniProt P28566) | cell-free assay | 10 µM | inhibition | -10.1%

A few entries again (study 2):
test system | conditions | plasma concentration
male Sprague Dawley rats | intravenous, 1 mg/kg, 8 h | 0.0173 µg/mL
